Assay results from different studies.
Compare with care: the assays were run in different laboratories. Numbers after ± are the reported error. Values after ≈ are worked out from the molar mass of the structure shown.
PRKACA: cAMP-dependent protein kinase catalytic subunit alpha (PRKACA, Homo sapiens, UniProt P17612)
prp N63Q: Ribosomal processing cysteine protease Prp (prp, Staphylococcus aureus, UniProt Q2FXS9, N63Q)
Sequence of UniProt P35626 (whole entry, looked up): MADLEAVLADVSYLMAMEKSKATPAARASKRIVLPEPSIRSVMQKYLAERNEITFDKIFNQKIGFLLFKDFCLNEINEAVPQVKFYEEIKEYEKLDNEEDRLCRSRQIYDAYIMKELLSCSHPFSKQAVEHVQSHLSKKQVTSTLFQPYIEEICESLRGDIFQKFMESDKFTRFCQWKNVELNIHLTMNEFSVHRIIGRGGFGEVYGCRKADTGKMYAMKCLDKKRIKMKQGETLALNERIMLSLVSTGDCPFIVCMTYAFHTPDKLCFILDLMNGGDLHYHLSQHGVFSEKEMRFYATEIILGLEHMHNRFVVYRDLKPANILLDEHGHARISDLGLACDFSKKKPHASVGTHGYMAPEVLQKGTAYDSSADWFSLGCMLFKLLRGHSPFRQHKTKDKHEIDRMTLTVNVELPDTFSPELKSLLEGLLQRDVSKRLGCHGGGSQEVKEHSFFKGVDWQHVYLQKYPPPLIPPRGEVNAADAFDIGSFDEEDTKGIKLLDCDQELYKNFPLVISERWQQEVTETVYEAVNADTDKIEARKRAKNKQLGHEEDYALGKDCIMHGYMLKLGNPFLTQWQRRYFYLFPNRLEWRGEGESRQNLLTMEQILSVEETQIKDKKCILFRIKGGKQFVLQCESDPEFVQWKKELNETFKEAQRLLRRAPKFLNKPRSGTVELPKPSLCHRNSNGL
Sequence of UniProt Q96PF2 (whole entry, looked up): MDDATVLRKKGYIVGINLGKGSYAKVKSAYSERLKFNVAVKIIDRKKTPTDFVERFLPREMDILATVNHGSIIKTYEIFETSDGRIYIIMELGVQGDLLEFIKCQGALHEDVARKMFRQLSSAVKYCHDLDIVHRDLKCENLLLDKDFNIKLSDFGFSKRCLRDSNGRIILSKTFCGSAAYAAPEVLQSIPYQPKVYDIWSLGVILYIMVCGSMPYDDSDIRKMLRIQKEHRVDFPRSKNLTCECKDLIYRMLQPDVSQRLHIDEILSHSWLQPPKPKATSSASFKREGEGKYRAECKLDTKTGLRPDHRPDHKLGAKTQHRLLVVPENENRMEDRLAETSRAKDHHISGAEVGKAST
Sequence of UniProt P97612 (whole entry, looked up): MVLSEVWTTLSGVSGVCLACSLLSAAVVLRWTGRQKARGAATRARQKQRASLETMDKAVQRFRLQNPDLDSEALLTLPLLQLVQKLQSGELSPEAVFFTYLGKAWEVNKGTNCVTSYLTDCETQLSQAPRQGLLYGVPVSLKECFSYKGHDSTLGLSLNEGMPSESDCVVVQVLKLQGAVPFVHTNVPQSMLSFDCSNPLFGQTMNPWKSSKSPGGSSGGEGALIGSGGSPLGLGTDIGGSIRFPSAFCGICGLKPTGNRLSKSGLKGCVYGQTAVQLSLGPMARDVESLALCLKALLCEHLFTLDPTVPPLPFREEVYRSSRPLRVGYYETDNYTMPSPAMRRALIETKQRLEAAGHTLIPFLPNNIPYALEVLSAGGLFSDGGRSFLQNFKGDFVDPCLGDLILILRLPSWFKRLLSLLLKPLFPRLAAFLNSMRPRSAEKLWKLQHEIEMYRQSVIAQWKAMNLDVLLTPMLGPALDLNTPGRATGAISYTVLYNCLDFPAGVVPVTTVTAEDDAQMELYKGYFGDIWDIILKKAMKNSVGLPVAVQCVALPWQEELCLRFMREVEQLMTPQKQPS
Sequence of UniProt P08913 (whole entry, looked up): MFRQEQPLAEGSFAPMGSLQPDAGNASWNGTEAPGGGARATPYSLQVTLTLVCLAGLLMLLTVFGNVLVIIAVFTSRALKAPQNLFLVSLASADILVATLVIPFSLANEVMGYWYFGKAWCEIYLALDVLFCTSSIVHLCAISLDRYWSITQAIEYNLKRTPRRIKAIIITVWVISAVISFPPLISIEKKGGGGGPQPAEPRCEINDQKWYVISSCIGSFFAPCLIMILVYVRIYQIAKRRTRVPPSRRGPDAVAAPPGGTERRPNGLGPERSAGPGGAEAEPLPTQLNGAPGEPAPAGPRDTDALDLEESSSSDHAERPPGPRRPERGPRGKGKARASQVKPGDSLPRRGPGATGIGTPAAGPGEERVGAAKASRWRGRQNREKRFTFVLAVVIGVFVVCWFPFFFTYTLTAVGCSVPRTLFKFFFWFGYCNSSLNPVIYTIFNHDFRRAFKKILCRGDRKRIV

O=C(Nc1cnccc1Cl)N1CCN(Cc2ccc3c(c2)OC(F)(F)O3)CC1  inhibition (TSSK2 (Homo sapiens, UniProt Q96PF2); kinase activity, inhibitor; 10 µM, human, added: CHKtide): 14%
CO[C@H]1C[C@@H]2CC[C@@H](C)[C@@](O)(O2)C(=O)C(=O)N2CCCC[C@H]2C(=O)O[C@H]([C@H](C)C[C@@H]2CC[C@@H](OC(=O)NCCOCCOCCOCCOCCOCCOCCOCCOCCC(=O)N3CCc4cc(Cn5nc(-c6ccc7oc(N)nc7c6)c6c(N)ncnc65)ccc4C3)[C@H](OC)C2)C[C@@H](O)[C@H](C)/C=C(\C)[C@@H](O)[C@@H](OC)C(=O)[C@H](C)C[C@H](C)/C=C/C=C/C=C/1C  AEs leading to discontinuation (dose-escalation trial; patients with advanced solid tumours; intravenous, 1.6 mg/3 mg weekly, grade ≥3): 0%
CC[C@H](C)[C@H](NC(=O)[C@H](C)NC(=O)[C@H](CCCCN)NC(=O)[C@H](CC(C)C)NC(=O)[C@H](C)NC(=O)[C@@H](NC(=O)[C@H](Cc1c[nH]cn1)NC(=O)[C@H](CC(C)C)NC(=O)[C@@H](NC(=O)[C@@H](NC(=O)[C@H](CCCCN)NC(=O)[C@H](C)NC(=O)[C@H](C)NC(=O)[C@H](CO)NC(=O)[C@H](CCCCN)NC(=O)[C@H](Cc1ccccc1)NC(=O)[C@@H](NC(=O)[C@H](CCCCN)NC(=O)[C@H](CC(C)C)NC(=O)[C@H](Cc1ccccc1)NC(=O)[C@H](CO)NC(=O)[C@H](CCCCN)NC(=O)[C@H](Cc1c[nH]c2ccccc12)NC(=O)[C@H](CCCCN)NC(C)=O)[C@@H](C)O)[C@@H](C)O)C(C)C)[C@@H](C)O)C(=O)N[C@@H](CO)C(=O)N[C@@H](CO)C(N)=O  MBC50 (Acinetobacter baumannii; 33 strains): 2 µg/mL (≈ 0.682 µM)
C[C@H]1CN(c2n[nH]c3nc(N[C@H]4CC[C@H](NS(=O)(=O)CCC(F)(F)F)CC4)ncc23)CCO1  relative abundance (PRKACA; inhibitor, Kinobeads competition profiling; 0.032 µM; relative to: vehicle): 0.92
COc1cc(Nc2ncc(F)c(Nc3ccc4c(n3)NC(=O)C(C)(C)O4)n2)cc(OC)c1OC  inhibition (PRKACA; KINOMEscan; 10 µM, PKAC-alpha): 88%
COC[C@H](NC(=O)c1cnc(C)s1)C(=O)N[C@@H](COC)C(=O)N[C@@H](Cc1ccccc1)C(=O)[C@@]1(C)CO1  inhibition (prp N63Q; enzyme activity, inhibitor; 10 µM, prp 21.4 nM, added: FITC peptide substrate 0.5 µM): 44.8 ± 4.9%
COc1cc2c(Oc3ccc4[nH]c(C)cc4c3F)ccnc2cc1OCC1(N)CC1  T-wave abnormality incidence (paediatric refractory sarcoma patients; 12 mg): 9.1%
CCCCN1CCC(COC(=O)c2ccc(N)c(O[11CH3])c2)CC1  binding potential BPND (5-HT4 receptor binding, PET; rhesus monkey (Macaca mulatta), brain striatum; dose not given, baseline scan, unit not given; relative to: cerebellum reference region): 1.02 ± 0.03
CC(=O)NC[C@H]1[C@H](O)[C@H](O)[C@@H]2[C@H](O)C[C@@H](CO)N21  inhibition (human placental β-N-acetylglucosaminidase; 0.00322 µM, run 1, added: p-nitrophenyl GlcNAc): 30.4%
CN1CCN(c2cc(-c3ccncc3)c(-c3ccc4ccccc4c3)nn2)CC1  inhibition (ADRA2A (Homo sapiens, UniProt P08913); antagonist, FLIPR; 10 µM): 14.1%
CN(C(=O)n1cnc(-c2ccc[n+]([O-])c2)c1)C1CCCCC1  inhibition (Faah (Rattus norvegicus, UniProt P97612); probe labelling, inhibitor, competitive ABPP; rat brain soluble fraction; 100 µM, added: azido-FP probe): 99.9%
C[C@H](NC(=O)Cc1cc(F)cc(F)c1)C(=O)N[C@H](C(=O)OC(C)(C)C)c1ccccc1  inhibition (prp N63Q; enzyme activity; 10 µM, 21.4 nM enzyme dimer, added: 0.5 µM FITC-labelled peptide substrate): -15.1 ± 21.2%
COc1ccc(N2C(=O)N(c3c(C)cccc3Cl)Cc3cnc(Nc4ccc(C5CCN(C)CC5)cc4OC)nc32)nc1  inhibition (GRK3 (Homo sapiens, UniProt P35626); kinase activity; 0.5 µM): 2%
O=C(Nc1cccnn1)N1CCC(=Cc2cccc(Oc3ccc(C(F)(F)F)cn3)c2)CC1  inhibition (muscarinic receptor, rat; binding; 10 µM, added: [3H]oxotremorine M): 3%
Cc1cccc(C)c1OCC(=O)N[C@@H](Cc1ccccc1)[C@@H](O)C[C@H](Cc1ccccc1)NC(=O)[C@H](C(C)C)N1CCCNC1=O  inhibition (prp N63Q; enzyme activity, inhibitor; 10 µM, prp 21.4 nM, added: FITC peptide substrate 0.5 µM): 34.4 ± 17.7%

For quick reference, copied from above:
CO[C@H]1C[C@@H]2CC[C@@H](C)[C@@](O)(O2)C(=O)C(=O)N2CCCC[C@H]2C(=O)O[C@H]([C@H](C)C[C@@H]2CC[C@@H](OC(=O)NCCOCCOCCOCCOCCOCCOCCOCCOCCC(=O)N3CCc4cc(Cn5nc(-c6ccc7oc(N)nc7c6)c6c(N)ncnc65)ccc4C3)[C@H](OC)C2)C[C@@H](O)[C@H](C)/C=C(\C)[C@@H](O)[C@@H](OC)C(=O)[C@H](C)C[C@H](C)/C=C/C=C/C=C/1C  AEs leading to discontinuation (dose-escalation trial; patients with advanced solid tumours; intravenous, 1.6 mg/3 mg weekly, grade ≥3): 0%
